Assay results gathered from unrelated publications.
Every numbered part comes from another study and shows a few of its results, in no order. Changes are numbered by the printed parent chain.

Block 1 — technique: RNA Bind-n-Seq; form: RNA; medium: in vitro; concentration: not given; reference: input RNA pool; reading: higher = stronger binding; quantity: bound/input enrichment
Target: RING finger protein unkempt homolog, zinc fingers 1-6, GST-SBP tag (UNK, Homo sapiens, UniProt Q9C0B0, residues 30-357)
Sequence of UniProt Q9C0B0 (30-357, looked up): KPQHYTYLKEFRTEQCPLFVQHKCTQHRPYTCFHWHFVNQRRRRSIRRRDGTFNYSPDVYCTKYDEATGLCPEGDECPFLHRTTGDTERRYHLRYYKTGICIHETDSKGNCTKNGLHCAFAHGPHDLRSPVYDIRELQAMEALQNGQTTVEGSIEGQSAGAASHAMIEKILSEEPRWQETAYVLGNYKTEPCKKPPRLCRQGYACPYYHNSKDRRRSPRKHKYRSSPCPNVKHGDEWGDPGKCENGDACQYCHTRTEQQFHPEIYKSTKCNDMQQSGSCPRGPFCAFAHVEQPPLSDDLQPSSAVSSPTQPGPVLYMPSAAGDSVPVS
Setting: RNA with constant flanks, human-mouse chimeric sites, ends assumed
Constant ends, left off below: GGGAGUUCUACAGUCCGACGAUC … CAACAGAGGAUUGAGCAUCA
AGAAUCUUGGGACUGUUUUACUUAAUUGGUCAUUGAUAGCUUAACAAGCAUGGAGAUGAGAUUAGAAAUCUUGACAUCAACAGGUAUUAAGCAGAAAAAACCAUGGCCACGUGUCUCCUG: 0.106 ratio
ACUCAGAGAUUAUAUUCCCAAAGUGCUGGGAGUAAAGGUGUGGCCACUCAAUUCUCCUUGAUGGAUAUAUAUUUUUUUUAAUAUGAAUCUUCCUGUUCGUCCAGGGAAGAAAGAUUUGUU: 0.54 ratio
AUGGAAAAGGAUUCUCUGCCCCGCUUUGUGCGCUCUGAAUUUUAUAAGGAGCUAAUCAAGUAGUCAUCUGGUCAGGCUUCCAAAAGUUGCCCUGUGAUAUUUCCUCCAUCCUUUGUAGCA: 0.172 ratio
UGUAGUUGAUCCCCUGCGUGGCUGGGCCUUUUCUUUCUUUCCUUUAGGAAAAGCCUAAAGAUUAGGUUGUAAGAAAAACAGAAGCCAUGUUUCGAAGACCUGUGUUACAGGUAUUUCGUC: 0.138 ratio
UUCAAAGAAAAGGGCAGCUGUGUCAUUACUUGGGAGACUCUGGGGGAGGGAAAUUCUGUUCUUUUGUUUAAUUUUCCCCCAAAUGAAGCCAAAGUGUUUUUUAAGGAACUGAGAAAAAAU: 0.19 ratio

Block 2 — target: CCNA1, cyclin fold, Cln2 fusion (human); technique: yeast growth competition, sequencing; medium: yeast; setting: weak parent motif; reference: not given; reading: higher = stronger binding; quantity: normalised enrichment score
Starting sequence: ORC1 docking peptide (human); PRARKRLELGNLG
PRARKRLKLGNLG [E8K]: 0.0173
PRARDRLELGNLG [K5D]: 0.369
PDARKRLELGNLG [R2D]: 0.355
PRARKDLELGNLG [R6D]: 0.402
PRARKRLELYNLG [G10Y]: 0.969

Block 3 — technique: protein binding microarray; form: double-stranded DNA, one strand shown; medium: in vitro; concentration: not given; reference: not given; reading: higher = stronger binding; quantity: E-score
Target: Histone acetyltransferase KAT6A, winged helix 2, GST fusion (KAT6A, Homo sapiens, UniProt Q92794, residues 85-181)
Setting: 8-mer, flanks averaged, mean of 2 arrays, mostly near background
Construct (chain): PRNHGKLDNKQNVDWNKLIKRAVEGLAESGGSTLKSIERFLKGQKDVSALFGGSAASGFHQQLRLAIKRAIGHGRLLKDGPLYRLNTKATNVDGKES
ATCTCCAA: 0.135
ATATCGCG: 0.184
ACCTATAG: -0.257
CCAAGTCG: 0.0615
GGCGCTGA: -0.026
TATTTAGA: 0.0686
CATGTATC: -0.186

Mixed results
PhoQ, residues 284 288 289 292 302 303 NLSRDF
fold induction (PhoP, residues 12 14 15 18 19 SQCLL (Escherichia coli, UniProt P23836); Sort-seq, refers to: YFP reporter; E. coli; PhoQ-PhoP variant library, added: 10 µM Mg2+; reference: high Mg2+ state, higher = stronger signaling): 9.71
